Experimental data from different studies.
Each numbered part is a random draw from the data of one study; scales do not carry over between parts. Changes are numbered by the printed parent chain.

Sample 1 — target: CCND2, cyclin fold, Cln2 fusion (human); method: yeast growth competition, sequencing; medium: yeast; notes: weak parent motif; reference: not given; direction: higher = stronger binding
Starting sequence: CDC25A docking peptide (human); PPHRRRLLFACSP; partner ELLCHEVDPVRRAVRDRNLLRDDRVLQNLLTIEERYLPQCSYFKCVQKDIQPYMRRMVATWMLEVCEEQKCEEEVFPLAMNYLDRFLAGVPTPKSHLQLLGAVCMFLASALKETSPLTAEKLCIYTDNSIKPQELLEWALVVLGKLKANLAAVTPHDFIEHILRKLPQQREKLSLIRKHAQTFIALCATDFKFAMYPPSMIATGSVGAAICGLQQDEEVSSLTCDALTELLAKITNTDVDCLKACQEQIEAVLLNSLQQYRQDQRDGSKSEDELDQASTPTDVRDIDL
Variant | normalised enrichment score
PPHRRRLLFACSQ [P13Q] | 0.069
PPHRRRLLFSCSP [A10S] | 0.076
PPHRRRLMFACSP [L8M] | 0.127
PPHRRRLFFACSP [L8F] | 0.237
PPHRRRLLFPCSP [A10P] | 0.188
PPHRRRLLFAVSP [C11V] | 0.0882
PPHRRRLIFACSP [L8I] | 0.323
PPHRRYLLFACSP [R6Y] | -0.216
PPHRRNLLFACSP [R6N] | 0.409
PPHRRRNLFACSP [L7N] | -0.0305
PPHRRRLLFACNP [S12N] | 0.458
IPHRRRLLFACSP [P1I] | 0.283
PCHRRRLLFACSP [P2C] | 0.256
PPHRRCLLFACSP [R6C] | 0.0488
PPHRRRLLFACTP [S12T] | 0.178
PPHRRRLCFACSP [L8C] | 0.0488
PPHVRRLLFACSP [R4V] | 0.354
PPHRRRLLFACSM [P13M] | -0.0741
PPHRRRLLEACSP [F9E] | 0.072

Sample 2 — target: UBE2E2 UBC core domain (UniProt Q96LR5); method: yeast two-hybrid; medium: yeast; notes: mostly zero background; reference: not given; direction: higher = stronger interaction
Chain of UniProt Q96LR5 (whole entry, looked up): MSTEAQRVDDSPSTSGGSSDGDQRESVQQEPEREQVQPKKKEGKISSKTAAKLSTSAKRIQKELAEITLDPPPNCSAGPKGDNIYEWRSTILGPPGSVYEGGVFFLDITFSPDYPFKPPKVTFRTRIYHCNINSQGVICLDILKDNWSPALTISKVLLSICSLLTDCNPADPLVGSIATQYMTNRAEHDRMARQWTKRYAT
B1: TRIM8 RING domain (UniProt Q9BZR9); chain WKNCFEEELICPICLHVFVEPVQLPCKHNFCRGCIGEAWAKDSGLVRCPECNQAYNQKPGLE
B2: IRF2BPL RING domain (UniProt Q9H1B7); chain SPMANSGPLCCTICHERLEDTHFVQCPSVPSHKFCFPCSRESIKAQGATGEVYCPSGEKCPLVGSNVP
B3: TRIM69 RING domain (UniProt Q86WT6); chain VIQDITMELHCPLCNDWFRDPLMLSCGHNFCEACIQDFWRLQAKETFCPECKMLCQYNNCTF
B4: ARK2C RING domain (UniProt Q6ZSG1); chain EGEESDTDEKCTICLSMLEDGEDVRRLPCMHLFHQLCVDQWLAMSKKCPICRVDIETQLGAD
Sequence | lacZ reporter activity
B1 (TRIM8 RING domain) | 0
QLQDIKEQTMCPVCLDRLKNMIFLCGHGTCQLCGDRMSECPICRKAIERRILLY (MIB1 RING domain (UniProt Q86YT6)) | 0
VTLSLTLPITCHICLGKVRQPVICINNHVFCSICIDLWLKNNSQCPACRVPITPENPCK (OBI1 RING domain (UniProt Q5W0B1)) | 0
QLRRLQEERTCKVCMDKEVSVVFIPCGHLVVCQECAPSLRKCPICRGIIKGTVRTF (BIRC2 RING domain (UniProt Q13490)) | 0
B2 (IRF2BPL RING domain) | 0
DDENSDNSNECVVCLSDLRDTLILPCRHLCLCTSCADTLRYQANNCPICRLPFRALLQIR (MGRN1 RING domain (UniProt O60291)) | 0
B3 (TRIM69 RING domain) | 0
FPEHFVKSISCQICEHILADPVETNCKHVFCRVCILRCLKVMGSYCPSCRYPCFPTDLES (RAG1 RING domain (UniProt P15918)) | 0
RLTMMWEEVTCPICLDPFVEPVSIECGHSFCQECISQVGKGGGSVCPVCRQRFLLKNLRP (TRIM21 RING domain (UniProt P19474)) | 0
QLRRLQEERTCKVCMDKEVSIVFIPCGHLVVCKDCAPSLRKCPICRSTIKGTVRTF (BIRC3 RING domain (UniProt Q13489)) | 0
YWAMDSTFELCKICAESNKDVKIEPCGHLLCSCCLAAWQHSDSQTCPFCRCEIKGWEAVS (CBLC RING domain (UniProt Q9ULV8)) | 0
B4 (ARK2C RING domain) | 0

Sample 3 — method: protein-binding microarray; form: double-stranded DNA, one strand shown; medium: in vitro; tested at: 940 nM top; notes: 60-bp whole probe; with: salmon DNA 0.4 mg/ml; reference: random background probes; direction: higher = stronger binding; shared flanks, not repeated: GCCTAGCAC … GTCTTGATTCGCTTGACGCTGCTG
Target: Interferon regulatory factor 5, full length, phosphomimetic (IRF5, Homo sapiens, UniProt Q13568-2, residues 1-514, S451D/S453D/S456D/S462D)
Sequence | fitted relative affinity [z-score]
GACGGAGTGGGGTATCGGGACGTGCTA | 0.324
TCAGGTCTGGATGTGCCACTGTGCTAG | -0.387
TTGGATCTCAGTCTCGATTAGTGCTAG | 2.97
TTAGGACTGGACACTGCGTTAGTGCTA | -0.441
TCCCTTATAAATAGCACAGGGTGCTAG | 0.59
GACGGACTGAGTATCGAGACGTGCTAG | 1.21
GTGTTTCTCAGTTTATTTATGTGCTAG | 2.34
TTAGAACTGAGTCTCGAGTAGTGCTAG | 0.659
ATAGATATCGGGTATCGATTAGTGCTA | 2.77
GACGGACTGGGACTGGGGAAGTGCTAG | -0.592
TTAGGTAGCGACTTTCGGTTAGTGCTA | 2.83
TTTCTCTCATTATGTGGGTTGTGCTAG | 4.77
TTAGGTATCCTACTGCTTCAGTGCTAG | 0.0146
GACGGTCTCCTACTGCTAACGTGCTAG | -0.182
TTAGGATTCGGTTTCGGTTAGTGCTAG | 8.84
GACGGTCTTCTTTTCCTGACGTGCTAG | 1.03
GGCCCAGGAGGAGGCCCCTCGTGCTAG | -1.04
TTAGATATCGGGCTTCGATTAGTGCTA | -0.118
TTAGGTTCCGCTTTCGGTTAGTGCTAG | 4.56
TCAAGTTTCCCTCCCTGACTGTGCTAG | 1.35
GACAGTTTCCTTTTCCTGACGTGCTAG | 3.43
GACGGTTTCCATATCCTGACGTGCTAG | 1.72
TTAGGACTGGGGGATCGGTTAGTGCTA | 0.945
TTAGGTCTCGGACTCGGTTAGTGCTAG | 1.01
GACGGACTGGACTAGCGGGACGTGCTA | -0.558

Sample 4 — method: RNA Bind-n-Seq; form: RNA; medium: in vitro; tested at: 100 nM; reference: input RNA pool; direction: higher = stronger binding
Target: RING finger protein unkempt homolog, zinc fingers 1-6, SBP tag (UNK, Homo sapiens, UniProt Q9C0B0, residues 30-357)
Chain of UniProt Q9C0B0 (30-357, looked up): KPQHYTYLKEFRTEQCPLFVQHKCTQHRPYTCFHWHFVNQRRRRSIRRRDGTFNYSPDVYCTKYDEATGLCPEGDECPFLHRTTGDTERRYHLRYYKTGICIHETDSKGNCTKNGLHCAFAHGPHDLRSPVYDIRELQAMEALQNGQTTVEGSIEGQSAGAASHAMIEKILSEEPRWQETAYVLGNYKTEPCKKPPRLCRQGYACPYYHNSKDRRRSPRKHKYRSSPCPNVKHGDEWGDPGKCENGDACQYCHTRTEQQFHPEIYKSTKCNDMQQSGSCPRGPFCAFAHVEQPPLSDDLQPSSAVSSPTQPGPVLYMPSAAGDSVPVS
Notes: RNA with constant flanks, vertebrate orthologous sites, ends assumed
Sequence | bound/input enrichment [ratio]
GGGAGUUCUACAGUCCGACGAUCAAAUCGAAACAAUAGAGCUCUGCAGAGUUCCUUUAAAACUGGAAAAUUCUAGCUGCAAAAUAGAAGAACUGUAUCAUGAAGCAAAGUUCUCAUACACUGCAGAAACAAAAGACAAUACAGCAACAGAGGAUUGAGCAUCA | 0.23
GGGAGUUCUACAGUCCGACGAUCUUACAGUCAUUGAUGGACUCUAUUUUUUUAUUAUUACUUGGACCUUGGUCGUUUUUAUACUAGCAAAAUGUCUUGUUUUAAUUUGUGUUUUUUUUGGCGGGGAGGGAGUGAACUUGCUGACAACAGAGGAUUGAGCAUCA | 3.27
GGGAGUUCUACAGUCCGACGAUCUGAGCAUACAUAUACAAUGUGUUUCAAAUGCUGCUUGUAAAAUUAAACCAUCAUCUAGAAUAGAGUUAAUUUAUUAUAAUCAAGCUACAAAUAGGUUUUCUUAAACCAGAGAUGCACUGCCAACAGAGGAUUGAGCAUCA | 0.585
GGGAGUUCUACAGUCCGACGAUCGGGUGACUUUGGGCGCCCGCAAAAACAUCGUGCAGAGUCCUAGCUCCUGGGUCUGCCAAAUUUGUCUUGUCUUUCCGGACCCGAGGCCAAAGCCGCAAACAUGCUGCGCCAGAUCCUCGGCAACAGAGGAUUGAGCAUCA | 0.133
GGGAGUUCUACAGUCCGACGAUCCUCCCGCACCUCACGACAGGGAGUCGGGGGAGCUCAGGAUGACCCUCAGCUGUUCCAAUCCAGUAUUUUUCUUUUUAAAAAUUACUGUAUUUAUUAUGACGAUGGUGACUCCCCGGUGCACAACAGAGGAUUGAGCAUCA | 0.404
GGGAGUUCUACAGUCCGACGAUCAAUUAUAGCAAAAGAGCCAAGCAGUAGCAUUGAGUUUUUUUUUAUAAAUGUAAAAUUAAUUAGAUUCAGACUUUGUUUCCUUAUUCAGUUUUAAAAAUAAAAAAUACCUCAGUGCUGUUUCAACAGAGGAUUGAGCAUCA | 0.438
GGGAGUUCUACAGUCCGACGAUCCUCUACGGGCCUCGCAGAGUUGAAAUAAUGGAAGAGGAAAGUGAACAGUAAUCUUCAGUUUAGUAUUUAUGCCUAGGUGUGAAAUGUUUUUUGUUGAUCAUUUCUAUAAUCCAGAGCUUUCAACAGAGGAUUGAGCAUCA | 1.41
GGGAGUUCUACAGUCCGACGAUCUGUGUCUCUUGGUUUGGGGUAGAGGGGAGGGAGGGGUAGGACUGGAAUCUCUAGGGUGUAUGGGUAGAUAGGGUGCACAGUUAGUUCUGUGUGGGGGCCUUUAUGUAAAAAAAACUCUGACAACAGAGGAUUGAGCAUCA | 0.552
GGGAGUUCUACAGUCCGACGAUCCUGUGAGCAGCUCGGGGCCGUUCGUGCAGUGCACGUAUGGCGGCGUCGCCGAUCAGGGAAUAAUUGGCGGUGCUCGGUUGAGCCAGGGUCUAUCCCCUAAUCACCUCAAUAAUGGAAAUCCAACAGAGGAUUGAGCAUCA | 0.314
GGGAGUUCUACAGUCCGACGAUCAAAUUUAUUUCAUGCCCUGGACUCCCUAUCGUACUGAUACUUUAAUAGAAUAUGCAUCUUUAGAAGACUUCCAAAACAGUCGCCAAACAACAACCUAUAAACUUCCAAAUCGAGUAGAUGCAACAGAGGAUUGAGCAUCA | 1.66
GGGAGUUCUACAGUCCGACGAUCUGCAUUACUUGACCAGAGUUGAGGUGACAGAAUUUGAAGACAUCAAAUCAGGUUACAGAAUAGAUUUUUAUUUUGAUGAGAAUCCCUACUUUGAAAAUAAAGUUCUCUCCAAAGAGUUUCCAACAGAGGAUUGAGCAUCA | 0.514

Sample 5 — method: universal PBM; form: double-stranded DNA, one strand shown; medium: in vitro; tested at: not given; direction: higher = stronger binding
Target: Sal-like protein 4, full length isoform B (SALL4, Homo sapiens, UniProt Q9UJQ4-2, residues 1-616)
Notes: 8-mer, flanks averaged, mean of replicates
Sequence | E-score
ATCCCGGG | -0.252
CGTATCGC | -0.052
CATACCCC | 0.0204
CTGGTTGA | -0.219
AGAGGGCT | -0.223
CACCCACA | -0.205
CAGAGCGG | -0.175
TCGGTAGA | 0.0738
CGGCCAAG | -0.244
AAAAGACA | 0.204
GCTGTTCC | -0.226
CTTGGCAA | -0.0749
GTTTCGCA | -0.063
GAACTTCC | -0.132
ACGCGCCC | -0.209
ACGGGAAC | -0.139
GCGCTTCC | -0.175
GGTCCCAC | -0.22
CCTGTCGC | -0.244
ACGATCAG | 0.0101
AGCGCTGG | -0.137
AGCGTACT | -0.135
TGCCTCCA | -0.115
AACGGTAA | 0.0747
CTTAACCA | 0.0959

Sample 6 — method: DHFR PCA, deep sequencing; medium: yeast; with: (+)-ABA 0.0091 µM; reference: wild-type fitted maximum; direction: higher = stronger binding
Target: ABI1, truncated, D143A, DHFR fusion (Arabidopsis thaliana)
Notes: methotrexate growth selection, single substitutions
Starting sequence: PYL1, truncated, DHFR fusion (Arabidopsis thaliana); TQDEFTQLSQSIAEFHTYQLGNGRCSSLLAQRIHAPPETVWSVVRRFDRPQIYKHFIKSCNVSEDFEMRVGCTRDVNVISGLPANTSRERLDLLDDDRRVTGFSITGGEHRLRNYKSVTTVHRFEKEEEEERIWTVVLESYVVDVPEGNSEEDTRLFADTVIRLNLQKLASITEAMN
Variant | relative binding score
E4D | 18.3%
N165D | 9.91%
N77P | -7.52%
N77S | 49.7%
V100G | -7.13%
D92E | -0.378%
R132I | 5.08%
F15C | -1.65%
V143K | -8.54%
A170P | -4.06%
I79M | 13.2%
R111A | -0.819%
L94Y | 4.72%
N77W | 20.7%
E131S | 49%
F5G | 1.61%
R24E | 4.08%

Some of these lines once more (sample 6):
Variant | relative binding score
L94Y | 4.72%
N77S | 49.7%
N165D | 9.91%
R111A | -0.819%
F5G | 1.61%
V100G | -7.13%
R24E | 4.08%
A170P | -4.06%
R132I | 5.08%
N77P | -7.52%
N77W | 20.7%
E4D | 18.3%
E131S | 49%
V143K | -8.54%
F15C | -1.65%
